Measurements from different studies.
Each line is one published result; not all experiments were run side by side. Numbers after ± are the reported error.
Target: Cholinesterase (BCHE, Equus caballus, UniProt P81908)
Sequence of UniProt P81908 (whole entry, looked up): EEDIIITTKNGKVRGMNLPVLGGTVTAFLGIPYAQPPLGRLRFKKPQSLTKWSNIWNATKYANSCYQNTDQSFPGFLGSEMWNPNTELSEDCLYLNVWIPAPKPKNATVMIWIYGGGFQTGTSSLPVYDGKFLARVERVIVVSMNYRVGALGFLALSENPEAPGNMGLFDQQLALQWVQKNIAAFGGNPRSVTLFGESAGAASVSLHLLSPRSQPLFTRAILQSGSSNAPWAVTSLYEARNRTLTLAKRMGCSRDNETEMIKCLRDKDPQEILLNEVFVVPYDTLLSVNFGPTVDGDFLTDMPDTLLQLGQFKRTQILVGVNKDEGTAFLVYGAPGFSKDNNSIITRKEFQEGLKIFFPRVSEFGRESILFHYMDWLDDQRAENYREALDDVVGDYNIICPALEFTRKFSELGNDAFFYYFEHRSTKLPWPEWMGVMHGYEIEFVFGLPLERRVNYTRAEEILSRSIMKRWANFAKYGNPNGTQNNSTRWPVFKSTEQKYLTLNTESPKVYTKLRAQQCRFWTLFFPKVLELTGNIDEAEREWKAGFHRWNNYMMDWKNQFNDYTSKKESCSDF

SMILES | assay | test system | setting | inhibition [%]
Ic1ccccc1/N=N/c1ccc2nc(-c3ccccc3)cc(-c3ccccc3)c2c1 | enzyme activity, inhibitor |  | 100 µM | 32.5
C=CCCCCCCCCCOCc1cn(CC2=CC[C@@H]3C(C(=O)OC)=CO[C@@H](OC(C)=O)[C@H]23)nn1 | inhibitor | horse serum BuChE | 10000 µM | 25.56 ± 0.05
COc1cc(/C=C/C(=O)OC[C@H]2O[C@@H](Oc3c(-c4ccc(O)cc4)oc4cc(O)cc(O)c4c3=O)[C@H](O)[C@@H](OC(=O)/C=C/c3ccc(O)cc3)[C@@H]2O)ccc1O | enzyme activity, inhibitor, Ellman |  | 100 µg/mL | 54.2
O=C(O)c1ccc(Nc2cc(N3CCN(c4cccc(C(F)(F)F)c4)CC3)c3noc4c3c2C(=O)c2ccccc2-4)cc1 |  |  | 10 µM | < 0
O=[N+]([O-])c1ccc(/N=N/c2ccc3nc(-c4ccccc4)cc(-c4ccccc4)c3c2)cc1 | enzyme activity, inhibitor |  | 100 µM | > 65
COC(=O)C1=CO[C@@H](OC(C)=O)[C@@H]2C(Cn3cc(-c4ccc(F)cc4)nn3)=CC[C@H]12 | inhibitor | horse serum BuChE | 10000 µM | 33.37 ± 0.18
COc1ccnc(Nc2c3c(nc4ccccc24)CCC(C)C3)c1 (stereo not shown) | enzyme activity, inhibitor |  | 50 µM | -113
COC(=O)C1=CO[C@@H](OC(C)=O)[C@@H]2C(Cn3cc(C4(O)CCCC4)nn3)=CC[C@H]12 | inhibitor | horse serum BuChE | 10000 µM | 40.7 ± 0.23
CC(C)(C)c1ccc(Nc2c3c(nc4ccccc24)CCCC3)cc1 | enzyme activity, inhibitor |  | 100 µM | 70.1
C[C@@H]1O[C@@H](OC[C@H]2O[C@@H](Oc3c(-c4ccc(O)cc4)oc4cc(O)cc(O)c4c3=O)[C@H](O)[C@@H](O)[C@@H]2O)[C@H](O)[C@H](O)[C@H]1O | enzyme activity, inhibitor, Ellman |  | 100 µg/mL | 0
Cc1ccc(Nc2c3c(nc4ccccc24)CCCC3)cc1 | enzyme activity, inhibitor |  | 100 µM | -36.1
COC(=O)C1=CO[C@@H](O)[C@@H]2C(Cn3cc(CO[Si](c4ccccc4)(c4ccccc4)C(C)(C)C)nn3)=CC[C@H]12 | inhibitor | horse serum BuChE | 10000 µM | 24.94 ± 0.23
COc1ccnc(Nc2c3c(nc4ccc(Cl)cc24)CCCC3)c1 | enzyme activity, inhibitor |  | 100 µM | -131
CCCCCCCCOCc1cn(CC2=CC[C@@H]3C(C(=O)OC)=CO[C@@H](O)[C@H]23)nn1 | inhibitor | horse serum BuChE | 10000 µM | 42.57 ± 0.16
COc1ccc(Nc2c3c(nc4ccccc24)CCCC3)cc1 | enzyme activity, inhibitor |  | 50 µM | < -200
O=S(=O)(F)CCc1cn(Cc2cccc(-c3ccccc3)c2)nn1 | inhibitor, Ellman |  | 20 µM | 30.6
COc1ccc(Nc2c3c(nc4ccccc24)CCCC3)nc1 | enzyme activity, inhibitor |  | 50 µM | 23
Cc1ccc(-c2nc3ccc(/N=N/c4ccc(Cl)cc4)cc3c(-c3ccccc3)c2I)cc1 | enzyme activity, inhibitor |  | 100 µM | 18.8
COC(=O)C1=CO[C@@H](O)[C@@H]2C(Cn3cc(C(O)(c4ccccc4)c4ccccc4)nn3)=CC[C@H]12 | inhibitor | horse serum BuChE | 10000 µM | 99.72 ± 0.18

Repeated from above:
SMILES | assay | test system | setting | inhibition [%]
CCCCCCCCOCc1cn(CC2=CC[C@@H]3C(C(=O)OC)=CO[C@@H](O)[C@H]23)nn1 | inhibitor | horse serum BuChE | 10000 µM | 42.57 ± 0.16
O=S(=O)(F)CCc1cn(Cc2cccc(-c3ccccc3)c2)nn1 | inhibitor, Ellman |  | 20 µM | 30.6
